Measurements from different studies.
Each numbered part is a random draw from the data of one study; scales do not carry over between parts.
Sequence of UniProt P22607 (whole entry, unmodified, looked up): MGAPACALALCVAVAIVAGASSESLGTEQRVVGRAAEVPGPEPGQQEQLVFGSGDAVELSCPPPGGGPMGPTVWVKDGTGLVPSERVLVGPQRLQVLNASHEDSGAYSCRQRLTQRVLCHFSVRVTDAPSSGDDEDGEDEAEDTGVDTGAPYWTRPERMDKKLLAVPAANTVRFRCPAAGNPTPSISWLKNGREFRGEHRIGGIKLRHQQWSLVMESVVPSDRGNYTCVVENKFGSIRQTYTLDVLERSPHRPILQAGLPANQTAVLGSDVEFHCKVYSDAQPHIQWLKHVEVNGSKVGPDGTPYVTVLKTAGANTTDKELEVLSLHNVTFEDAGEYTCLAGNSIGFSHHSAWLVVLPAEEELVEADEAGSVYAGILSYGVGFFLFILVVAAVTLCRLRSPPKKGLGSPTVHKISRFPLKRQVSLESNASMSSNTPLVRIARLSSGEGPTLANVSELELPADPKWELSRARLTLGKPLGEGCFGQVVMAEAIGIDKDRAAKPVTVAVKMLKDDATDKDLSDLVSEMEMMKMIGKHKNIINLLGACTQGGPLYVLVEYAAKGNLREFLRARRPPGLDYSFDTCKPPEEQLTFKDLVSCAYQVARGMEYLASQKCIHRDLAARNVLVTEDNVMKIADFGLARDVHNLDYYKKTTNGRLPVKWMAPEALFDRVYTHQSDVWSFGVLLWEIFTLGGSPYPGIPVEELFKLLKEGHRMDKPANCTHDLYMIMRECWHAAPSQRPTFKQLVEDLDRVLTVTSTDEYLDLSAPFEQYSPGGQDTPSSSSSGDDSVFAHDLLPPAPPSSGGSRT
Sequence of UniProt P35916 (whole entry, looked up): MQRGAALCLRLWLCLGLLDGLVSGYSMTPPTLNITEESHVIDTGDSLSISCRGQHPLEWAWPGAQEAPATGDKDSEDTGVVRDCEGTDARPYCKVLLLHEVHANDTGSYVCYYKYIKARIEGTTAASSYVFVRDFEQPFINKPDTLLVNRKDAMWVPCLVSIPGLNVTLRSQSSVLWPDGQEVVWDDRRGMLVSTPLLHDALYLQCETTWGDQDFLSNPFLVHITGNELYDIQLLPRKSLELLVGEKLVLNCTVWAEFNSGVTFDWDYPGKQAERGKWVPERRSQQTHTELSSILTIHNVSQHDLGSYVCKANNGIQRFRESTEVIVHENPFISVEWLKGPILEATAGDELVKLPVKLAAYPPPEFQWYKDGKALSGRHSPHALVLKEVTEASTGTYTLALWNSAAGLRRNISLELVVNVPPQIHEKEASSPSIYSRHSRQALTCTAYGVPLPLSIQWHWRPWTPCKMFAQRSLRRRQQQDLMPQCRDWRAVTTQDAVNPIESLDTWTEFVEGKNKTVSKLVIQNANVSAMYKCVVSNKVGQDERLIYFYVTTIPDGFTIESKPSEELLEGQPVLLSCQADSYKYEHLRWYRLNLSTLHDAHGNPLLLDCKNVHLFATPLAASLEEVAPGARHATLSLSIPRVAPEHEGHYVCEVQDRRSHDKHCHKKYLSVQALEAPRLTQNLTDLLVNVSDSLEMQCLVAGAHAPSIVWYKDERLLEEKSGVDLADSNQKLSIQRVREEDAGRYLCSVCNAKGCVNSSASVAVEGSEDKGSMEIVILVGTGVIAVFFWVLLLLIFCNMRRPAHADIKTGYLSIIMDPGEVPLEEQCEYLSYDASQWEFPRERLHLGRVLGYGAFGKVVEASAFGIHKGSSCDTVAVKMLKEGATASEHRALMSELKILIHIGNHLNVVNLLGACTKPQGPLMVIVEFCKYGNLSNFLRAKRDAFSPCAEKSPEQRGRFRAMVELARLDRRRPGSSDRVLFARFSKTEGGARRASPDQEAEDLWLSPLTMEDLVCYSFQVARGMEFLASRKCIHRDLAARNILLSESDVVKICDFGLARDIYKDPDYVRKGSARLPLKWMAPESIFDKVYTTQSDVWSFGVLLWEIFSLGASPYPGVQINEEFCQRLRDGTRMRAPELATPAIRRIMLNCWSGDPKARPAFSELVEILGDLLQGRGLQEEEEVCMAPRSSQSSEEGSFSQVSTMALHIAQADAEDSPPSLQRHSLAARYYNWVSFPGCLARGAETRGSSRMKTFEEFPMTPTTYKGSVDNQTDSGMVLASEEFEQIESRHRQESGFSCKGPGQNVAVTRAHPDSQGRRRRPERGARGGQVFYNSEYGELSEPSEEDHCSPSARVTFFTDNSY
Sequence of UniProt Q9NRM7 (whole entry, looked up): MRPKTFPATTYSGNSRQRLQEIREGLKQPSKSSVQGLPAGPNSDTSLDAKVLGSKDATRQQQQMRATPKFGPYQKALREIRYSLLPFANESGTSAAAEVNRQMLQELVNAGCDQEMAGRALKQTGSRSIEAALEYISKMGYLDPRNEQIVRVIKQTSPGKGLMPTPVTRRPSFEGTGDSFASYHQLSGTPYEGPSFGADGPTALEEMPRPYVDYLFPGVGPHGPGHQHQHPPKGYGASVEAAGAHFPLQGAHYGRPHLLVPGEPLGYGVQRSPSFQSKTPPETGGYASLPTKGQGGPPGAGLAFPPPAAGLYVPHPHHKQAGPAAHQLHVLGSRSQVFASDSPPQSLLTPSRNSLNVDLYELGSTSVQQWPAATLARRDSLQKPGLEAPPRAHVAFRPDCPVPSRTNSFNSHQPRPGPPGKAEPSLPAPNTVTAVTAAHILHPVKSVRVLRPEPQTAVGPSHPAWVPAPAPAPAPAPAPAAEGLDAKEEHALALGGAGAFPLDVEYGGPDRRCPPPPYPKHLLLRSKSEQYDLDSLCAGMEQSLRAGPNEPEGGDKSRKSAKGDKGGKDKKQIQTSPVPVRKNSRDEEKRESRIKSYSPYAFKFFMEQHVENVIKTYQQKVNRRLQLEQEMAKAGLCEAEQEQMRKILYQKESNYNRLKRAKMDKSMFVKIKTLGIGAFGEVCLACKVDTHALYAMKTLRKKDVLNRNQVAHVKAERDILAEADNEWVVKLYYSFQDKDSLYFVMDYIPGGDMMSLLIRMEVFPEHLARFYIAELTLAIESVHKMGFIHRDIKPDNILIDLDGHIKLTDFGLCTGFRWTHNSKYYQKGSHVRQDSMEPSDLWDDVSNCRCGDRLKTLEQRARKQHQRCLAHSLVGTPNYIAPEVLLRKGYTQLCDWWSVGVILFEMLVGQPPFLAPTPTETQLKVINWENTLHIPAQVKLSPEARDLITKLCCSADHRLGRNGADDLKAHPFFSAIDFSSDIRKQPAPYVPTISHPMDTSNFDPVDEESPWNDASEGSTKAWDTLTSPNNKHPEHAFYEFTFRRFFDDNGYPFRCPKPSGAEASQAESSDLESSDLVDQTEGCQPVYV

Series 1 — read-out: binding; method: radioligand binding; tested at: 10 µM; measurement: inhibition
Target: D(1A) dopamine receptor (DRD1, Homo sapiens, UniProt P21728)
Sequence of UniProt P21728 (whole entry, looked up): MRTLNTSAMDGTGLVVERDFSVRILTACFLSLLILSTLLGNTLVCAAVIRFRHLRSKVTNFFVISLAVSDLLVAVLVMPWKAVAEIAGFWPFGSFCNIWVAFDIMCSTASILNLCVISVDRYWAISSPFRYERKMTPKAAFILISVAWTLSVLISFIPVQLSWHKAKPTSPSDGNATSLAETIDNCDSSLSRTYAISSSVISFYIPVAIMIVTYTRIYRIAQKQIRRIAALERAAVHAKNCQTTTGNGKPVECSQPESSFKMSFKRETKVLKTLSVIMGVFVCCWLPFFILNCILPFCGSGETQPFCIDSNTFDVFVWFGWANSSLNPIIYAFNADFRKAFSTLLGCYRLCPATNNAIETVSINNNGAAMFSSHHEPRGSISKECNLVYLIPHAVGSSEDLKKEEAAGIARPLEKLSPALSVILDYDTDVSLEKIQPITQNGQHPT
O=C(Nc1cccnn1)N1CCC(=Cc2cccc(Oc3ccc(C(F)(F)F)cn3)c2)CC1: -3.23%
COCc1nc2cnc3cc(-c4c(C)noc4C)c(OC[C@H]4CCNC4)cc3c2n1[C@H](C)c1ccccc1: 2.89%
Cc1c(N2CCCC2)nc2ccc(Br)cc2c1C(=O)NC[C@H](CCC(=O)O)c1ccccc1Cl: 13.8%
Cc1nc(Cc2cccc(C(F)(F)F)c2)sc1-c1ccc(C(N)=O)nc1: -6.03%
Nc1c(C(=O)NCc2ccc(C(=O)NCCCC3CCCCC3)cc2)cnn1-c1ccccc1: -5.64%
O=C(NC[C@@H]1[C@H]2CN(C(=O)OCc3cc(C(F)(F)F)cc(C(F)(F)F)c3)C[C@@H]12)c1ccc2[nH]nnc2c1: 8.68%
CC1=C(C#N)C(c2ccc3c(c2)c(NC(=O)c2ccccc2C)nn3C)C(C#N)=C(C)N1: -27.7%

Series 2 — read-out: enzyme activity; mode: inhibitor; tested at: 0.5 µM; baseline: control; measurement: remaining activity
Target: Homeodomain-interacting protein kinase 3 (HIPK3, Homo sapiens, UniProt Q9H422)
Sequence of UniProt Q9H422 (whole entry, looked up): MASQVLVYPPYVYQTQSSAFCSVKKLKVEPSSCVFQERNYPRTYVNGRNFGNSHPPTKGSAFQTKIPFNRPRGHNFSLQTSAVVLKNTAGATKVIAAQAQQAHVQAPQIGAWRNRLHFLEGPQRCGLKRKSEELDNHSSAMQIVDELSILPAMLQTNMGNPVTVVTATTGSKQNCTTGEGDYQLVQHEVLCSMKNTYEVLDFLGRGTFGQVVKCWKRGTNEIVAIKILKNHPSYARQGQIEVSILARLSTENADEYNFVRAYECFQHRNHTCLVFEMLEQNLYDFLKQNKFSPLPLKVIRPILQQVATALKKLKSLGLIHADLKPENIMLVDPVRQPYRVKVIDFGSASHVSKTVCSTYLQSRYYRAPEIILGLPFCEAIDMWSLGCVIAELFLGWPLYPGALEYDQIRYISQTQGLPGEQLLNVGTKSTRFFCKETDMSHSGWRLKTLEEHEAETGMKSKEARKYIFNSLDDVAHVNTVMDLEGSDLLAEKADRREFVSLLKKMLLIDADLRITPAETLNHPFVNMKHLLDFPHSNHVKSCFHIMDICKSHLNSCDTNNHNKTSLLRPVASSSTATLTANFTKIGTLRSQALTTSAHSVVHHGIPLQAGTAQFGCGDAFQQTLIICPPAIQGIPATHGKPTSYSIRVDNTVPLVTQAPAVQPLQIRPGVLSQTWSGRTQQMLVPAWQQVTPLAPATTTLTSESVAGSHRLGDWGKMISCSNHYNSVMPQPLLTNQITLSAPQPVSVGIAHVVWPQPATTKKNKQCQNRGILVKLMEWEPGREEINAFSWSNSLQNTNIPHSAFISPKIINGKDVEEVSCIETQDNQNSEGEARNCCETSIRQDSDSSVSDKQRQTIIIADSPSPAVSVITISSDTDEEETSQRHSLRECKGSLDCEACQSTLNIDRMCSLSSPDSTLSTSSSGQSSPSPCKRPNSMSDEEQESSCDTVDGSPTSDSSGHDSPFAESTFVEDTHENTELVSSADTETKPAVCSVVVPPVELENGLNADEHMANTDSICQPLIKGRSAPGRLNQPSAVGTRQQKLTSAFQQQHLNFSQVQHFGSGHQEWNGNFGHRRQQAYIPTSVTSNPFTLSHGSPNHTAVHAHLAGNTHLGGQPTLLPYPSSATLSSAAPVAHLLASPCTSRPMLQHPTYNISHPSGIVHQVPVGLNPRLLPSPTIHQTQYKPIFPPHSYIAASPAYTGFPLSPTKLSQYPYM
CO[C@H]1C[C@@H]2CC[C@@H](C)[C@@](O)(O2)C(=O)C(=O)N2CCCC[C@H]2C(=O)O[C@H]([C@H](C)C[C@@H]2CC[C@@H](O)[C@H](OC)C2)CC(=O)[C@H](C)/C=C(\C)[C@@H](O)[C@@H](OC)C(=O)[C@H](C)C[C@H](C)/C=C/C=C/C=C/1C: 107%
NCCNc1ncc(C(N)=O)c(Nc2cccc(C(F)(F)F)c2)n1: 102%
O=c1c2ccccc2[nH]c(=S)n1CCN1CCC(=C(c2ccc(F)cc2)c2ccc(F)cc2)CC1: 97.7%
O=C(Nc1cccc(Nc2cc(Nc3cccc(C(F)(F)F)c3)ncn2)c1)C1CC1: 97%
O=S(=O)(c1cccc2cnccc12)N1CCCNCC1: 107%
O=C(O)c1ccc2c3c1cccc3c(=O)n1c3ccccc3nc21: 103%
Cn1sc(=O)n(Cc2ccccc2)c1=O: 94.9%
Cc1nc(-c2ccccc2)c(-c2ccncc2)o1: 107%
Nc1[nH]nc2nc3ccccc3nc12: 97.4%
CN(C)c1ccc(C=C2C(=O)Nc3ccccc32)cc1: 94.4%
Nc1ncnc2n[nH]c(Nc3ccc(F)cc3)c12: 100%
COc1cc2nccc(Oc3ccc(NC(=S)NC(=O)c4ccccc4C)cc3)c2cc1OC: 95.2%
Cc1ccc(NC(=O)c2ccc(CN3CCN(C)CC3)cc2)cc1Nc1nc(-c2cccnc2)cs1: 101%
Cc1ccc(Nc2nccc(N(C)c3ccc4c(C)n(C)nc4c3)n2)cc1S(N)(=O)=O: 103%

Series 3 — mode: inhibitor; tested at: 1 µM; measurement: inhibition
Compound: C=CC(=O)N1CCC[C@@H](n2nc(-c3ccc(Oc4ccccc4)cc3)c3c(N)ncnc32)C1
FGFR3 (Homo sapiens, UniProt P22607, G697C): 64%
LATS2 (Homo sapiens, UniProt Q9NRM7): 21%
FLT4 (Homo sapiens, UniProt P35916); enzyme activity: 76%

Series 4 — cell line: HaCaT; tested at: 100 µM; time: 36 h; measurement: viability
CC(=O)OCC[N+](C)(C)C: 86.7%
Cc1ccccc1C(=O)Nc1ccc(C(=O)N2CCCC(N(C)C)c3ccccc32)cc1 (stereo not drawn): 45%
CC(C)C[C@H](NC(=O)[C@@H](O)[C@H](N)Cc1ccccc1)C(=O)O: 80.7%
Cc1ccc(-c2cc(C(F)(F)F)nn2-c2ccc(S(N)(=O)=O)cc2)cc1: 4.28%
O=C(O)c1cccc(-c2noc(-c3ccccc3F)n2)c1: 95.1%
COc1c(C)c2c(c(O)c1C/C=C(\C)CCC(=O)OCCN1CCOCC1)C(=O)OC2: 49.4%

Some of these lines once more (series 1):
Cc1c(N2CCCC2)nc2ccc(Br)cc2c1C(=O)NC[C@H](CCC(=O)O)c1ccccc1Cl: 13.8%
Cc1nc(Cc2cccc(C(F)(F)F)c2)sc1-c1ccc(C(N)=O)nc1: -6.03%
Nc1c(C(=O)NCc2ccc(C(=O)NCCCC3CCCCC3)cc2)cnn1-c1ccccc1: -5.64%
